Measurements gathered from unrelated publications.
Compare with care: the assays were run in different laboratories. ± marks the error that the study gave. Values after ≈ are worked out from the molar mass of the structure shown.

Compound | assay | system | conditions | scale | endpoint | value
Cc1c(C(=O)Nc2ccn(C)n2)ncn1Cc1cccc(C(F)(F)F)c1 | – | human WT αS transgenic mouse, cortex | dose not given | reference: placebo | cytosolic to membrane αS ratio | no effect
Cc1ccc(C(=O)Nc2ccc(CP(=O)(O)O)cc2CP(=O)(O)O)cc1NC(=O)c1cccc(NC(=O)Nc2cccc(C(=O)Nc3cc(C(=O)Nc4ccc(CP(=O)(O)O)cc4CP(=O)(O)O)ccc3C)c2)c1 | aPTT | FXI-deficient human plasma | 233 to 467 µM, together with: 4.8 nM factor XIa | reference: untreated | clotting time ratio | 1.11 to 2.72 fold
CCOC(=O)C(Cc1cccc(O)c1)OC(=O)C=Cc1ccc(O)c(O)c1C=Cc1ccc(O)c(O)c1 (stereo not drawn) | – | C57 wild-type mice, isoproterenol-induced myocardial ischemia, serum | oral, 10 mg/kg pretreatment for 7 days, together with: isoproterenol 3 mg/kg | reference: normal group | serum CK-MB level | 105 ± 13%
O=S(=O)(c1ccccc1)N(CCc1nnc(S)o1)c1ccccc1 | – | rat | 100 mg/kg, 5 h, together with: carrageenan | – | paw edema inhibition | 40.1%
O=C(Nc1ccccc1)c1ccc(Nc2nnc(-c3ccc(O)cc3)c3ccccc23)cc1 | – | mice, plasma | intraperitoneal, 1 mg/kg | – | plasma anandamide level | increased
CCCCCCCCCCCCCCCC(=O)OCC(CSC[C@H](N)C(=O)N[C@@H](CO)C(=O)N[C@@H](CCCCN)C(=O)N[C@@H](CCCCN)C(=O)N[C@@H](CCCCN)C(=O)N[C@@H](CCCCN)C(=O)NCCCCCC(=O)N[C@@H](CCCCN)C(=O)N[C@@H](CC(C)C)C(=O)N[C@H](C(=O)N[C@@H](Cc1ccccc1)C(=O)N[C@@H](Cc1ccccc1)C(=O)N[C@@H](Cc1ccc2ccccc2c1)C(=O)O)C(C)C)OC(=O)CCCCCCCCCCCCCCC (stereo partly drawn) | – | APP/PS1 mouse, 13 months | intracortical, 100 µM, 300 nL, 5 d | reference: injected over adjacent side | Iba1 staining ratio | 3.09 ± 0.91
C=C1C(=O)OC2C1CCC1(C)OC13CC1OC1(C)C23 (single isomer, unassigned) | – | Pliss lymphosarcoma, outbred white rat | intraperitoneal, maximum tolerated dose, daily, 5 days | – | tumour growth inhibition | 59 to 88%
COc1ccc(-n2cc(CO)nn2)cc1 | prothrombin time | human plasma | 1 µM | – | clotting time | 15.8 ± 1 s
CCCOC(=O)Cc1c(C)n(C(=O)c2ccc(Cl)cc2)c2ccc(OC)cc12 | hot plate test | BALB/c mice | 100 mg/kg, 120 min | – | latency of nociceptive response | 15.6 ± 0.93 s
CC[C@H](C)[C@H](NC(C)=O)C(=O)N[C@H]1CSSC[C@@H](C(=O)N(C)[C@H](C(N)=O)[C@@H](C)CC)NC(=O)[C@H](CCCNC(=N)N)NC(=O)[C@H](Cc2c[nH]cn2)NC(=O)[C@H](C)NC(=O)CN(C)C(=O)[C@H](Cc2c[nH]c3ccccc23)NC(=O)[C@H](CC(=O)O)NC(=O)[C@H](CCC(N)=O)NC(=O)[C@H](Cc2cn(C)c3ccccc23)NC(=O)[C@H](C(C)C)NC1=O | complement classical pathway, ELISA C3 deposition | human serum | – | reference: compstatin | potency relative to compstatin | 871 fold
CC(CCC(=O)NCc1ccc(C(=O)NO)cc1)C1CCC2C3C(O)CC4CC(O)CCC4(C)C3CCC12C (stereo not drawn) | – | PCK rats | oral gavage, 15 mg/kg/day, 5 months | reference: untreated | kidney weight | decreased
COc1ccc(C2CC(c3ccc(C)cc3)=Nc3ccccc3S2)cc1OC (stereo not drawn) | – | Wistar rat, STZ-induced diabetes | oral, 10 mg/kg once daily, day 28 | – | blood glucose | 128 mg/dL
CC(C)[C@H](NC(=O)CN)C(=O)N[C@@H](CCCCN)C(=O)NCC(=O)N[C@@H](CC(=O)O)C(=O)N[C@@H](CCCCN)C(=O)NCC(=O)N[C@@H](CC(N)=O)C(=O)N1CCC[C@H]1C(=O)NCC(=O)N[C@@H](Cc1c[nH]c2ccccc12)C(=O)N1CCC[C@H]1C(=O)NCC(=O)N[C@@H](C)C(=O)N1CCC[C@H]1C(=O)O | – | K1735 M4 melanoma, mouse | up to 500 µg/mL, soluble peptide, together with: type I collagen coating 5 µg/mL | – | cell adhesion | no effect
C=C(c1cc(F)c(C(=O)O)c(F)c1)c1cc2c(cc1C)C(C)(C)CCC2(C)C | RNA sequencing, refers to: Sycp2 | rat, brain | dose not given, 24 h | reference: vehicle | log2 fold change | -0.25
CCC1CC2C(C)=CC3C(=O)CCCC3C=CC(C)=CC2C(=O)O1 (stereo not drawn) | dot blot | 5XFAD transgenic mouse, cortex RIPA-soluble lysate | oral gavage, 30 mg/kg/day, 5 days | reference: vehicle | total soluble Aβ reduction | 27.4%
C[C@H]1CN(C(=O)c2cn(-c3ccnc(N)n3)c3cc(C#CC4(O)CCCCC4)ccc23)CCN1 | – | A549 xenograft, zebrafish embryo | dose not given, 48 h | – | tumour proliferation | no effect
CC(C)(O)c1ncc([S@](N)(=O)=NC(=O)Nc2c3c(cc4c2CCC4)CCC3)s1 | IL-1β release | healthy humans, whole blood ex vivo | plasma concentration, together with: LPS | – | EC90 | 1.08 µg/mL (≈ 2.57 µM)
CCCCCCCCCC(=O)OCc1cn(-c2ccc(Cl)cc2)nn1 | aPTT | human plasma | 1 µM | – | clotting time | 47.8 ± 0.7 s
O=S(=O)(c1ccccc1)N(CCc1nnc(S)o1)c1ccc(Cl)cc1 | – | rat | 200 mg/kg, 1 h, together with: carrageenan | – | paw edema inhibition | 51.6%
COc1ccc2c(c1OC)C(C(Cl)(Cl)Cl)N1CCc3cc4c(cc3C1=C2)OCO4 (stereo not drawn) | – | rat, STZ-induced diabetic, liver | oral, 12 mg/kg, day 28 | – | SOD activity | 8.1 ± 0.77 U/mg protein

Compound | assay | system | conditions | scale | endpoint | value
COc1cc(Cn2ccc3cc(C(=O)NCC45CC6CC(CC(C6)C4)C5)ccc32)ccc1C(=O)NO | immunohistochemistry | 5xFAD mice, hippocampus | intraperitoneal, 10 mg/kg daily, 2 months | reference: vehicle | NeuN-positive signal | increased
CCOc1ccccc1-c1nnc2n1N=C(c1ccc(N3CCCC3)cc1)CS2 | – | db/db diabetic mice, excisional wounds | 10 µM | reference: PBS | healing time reduction | 36%
CCCCCCCOC(=O)Cc1c(C)n(C(=O)c2ccc(Cl)cc2)c2ccc(OC)cc12 | hot plate test | BALB/c mice | 50 mg/kg, 0 min | – | latency of nociceptive response | 10.1 ± 0.8 s
Cc1ccc(S(=O)(=O)N(CCc2nnc(S)n2N)c2ccccc2)cc1 | paw oedema | rat carrageenan oedema | dose not given, 6 h | – | inhibition | 57.6%
COc1c2c(cc3oc(CO)cc(=O)c13)O[C@H](C(C)(C)O)C2 | analgesic effect | mouse | oral, 1 mg/kg, 1 h | – | hot plate latency | 11.5 ± 0.6 s
Cc1cc(Nc2cc3ncccc3c(N[C@@H]3C[C@H]4CC[C@@H](C3)N4CCC#N)n2)n[nH]1 | – | moderate-severe ulcerative colitis patients | 270 mg, day 28 | reference: patients | endoscopic response | 9%
OCc1cnn(-c2ccccc2)n1 | prothrombin time | human plasma | 1 µM | – | clotting time | 15.5 ± 1 s
O=C1CCN(Cc2ccccc2)CC1C(C[N+](=O)[O-])c1ccccc1 (stereo not drawn) | – | Balb/c mice, acetic acid writhing | 50 mg/kg | – | inhibition of writhing | 48.7%
Nc1nc2cnc(C(=O)N3CCOC[C@@H]3c3ccc(C(F)(F)F)cc3)cc2c2c1COC2 | refers to: circulating tumour DNA | human, plasma cfDNA | oral, 800 mg once daily | – | time to ctDNA decline | ≤ 4 weeks
N#Cc1cc(C(=O)OCC[18F])c(C(F)(F)F)nc1N1CCN(C(=O)Cc2ccccc2)CC1 | PET | mouse, orthotopic GL261 glioma, brain tumour | – | – | target to normal ratio | 1.47 ± 0.01
CC(=O)c1cnc(N)nc1N1CC[C@H]1c1nn2ccc(Cl)c2c(=O)n1-c1ccccc1 | arthritic inflammation | rat collagen-induced arthritis | oral, once daily | – | ED50 | 0.5 mg/kg
O/N=C/c1cnn(-c2ccccc2)n1 | plasma recalcification time | human plasma | 1 µM | – | clotting time | 278 ± 8 s
Cc1cc(O)c(C=O)c2c1C(=O)Oc1c(CO)c(O)c3c(c1O2)C(O)OC3=O (stereo not drawn) | histopathology | rat, male, streptozotocin-induced diabetes, testis | 5 mg/kg, 9 weeks | – | seminiferous tubule diameter | 194 ± 12.4 µm
CC[C@H]1[C@@H](O)[C@@H]2[C@H](CC[C@]3(C)[C@@H]([C@H](C)CCOS(=O)(=O)[O-])CC[C@@H]23)[C@@]2(C)CC[C@@H](O)C[C@@H]12.[Na+] | – | ob/ob NASH mice, plasma | oral, 3 mg/kg once daily, 8 wk | – | plasma total cholesterol | 9.2 ± 0.3 mmol/L
Cc1ccc([C@@H]2O[C@H](CO)[C@@H](O)[C@H](O)[C@H]2O)cc1Cc1ccc(-c2ccc(F)cc2)s1 | – | rabbit, STZ-nicotinamide diabetes, serum | 28 days | – | blood glucose | 180 ± 4.03 mg/dL
O=[N+]([O-])c1cccc(S(=O)(=O)NC[C@@H](O)[C@@H]2CCc3cc(F)ccc3O2)c1 | – | rat, carrageenan paw oedema | oral, 100 mg/kg, 1 h after carrageenan | – | paw volume | 0.65 ± 0.2 mL
Cc1cc2c(cc1C1(c3ncc(C(=O)O)cn3)CC1)C(C)(C)CCC2(C)C | RNA sequencing, refers to: Ccl6 mRNA | rat, brain | dose not given, 24 h, single dose | reference: vehicle | log2 fold change | -1.39
CC(=O)N[C@H](CSSC[C@H](N)C(=O)O)C(=O)N[C@H](C)C(=O)N[C@H](CCCNC(=N)N)C(=O)N[C@H](CCCNC(=N)N)C(=O)N[C@H](CCCNC(=N)N)C(=O)N[C@H](C)C(=O)N[C@H](CCCNC(=N)N)C(N)=O | – | healthy male human, urine | intravenous, 0.5 to 10 mg single | – | fractional calcium excretion | no effect
Cc1cc2c(cc1O)C=C1C=CC(=O)C(C)(C)[C@H]1CC2 | refers to: macrophages, DCs, MDSCs | C57BL/6J mouse antibiotic-treated DSS colitis, colon | dose not given | reference: DSS alone | immune cell proportion | no effect

For quick reference, copied from above:
Compound | assay | system | conditions | scale | endpoint | value
Nc1nc2cnc(C(=O)N3CCOC[C@@H]3c3ccc(C(F)(F)F)cc3)cc2c2c1COC2 | refers to: circulating tumour DNA | human, plasma cfDNA | oral, 800 mg once daily | – | time to ctDNA decline | ≤ 4 weeks
N#Cc1cc(C(=O)OCC[18F])c(C(F)(F)F)nc1N1CCN(C(=O)Cc2ccccc2)CC1 | PET | mouse, orthotopic GL261 glioma, brain tumour | – | – | target to normal ratio | 1.47 ± 0.01
CC(=O)c1cnc(N)nc1N1CC[C@H]1c1nn2ccc(Cl)c2c(=O)n1-c1ccccc1 | arthritic inflammation | rat collagen-induced arthritis | oral, once daily | – | ED50 | 0.5 mg/kg
